Earlier results, collected from citations in different studies.
± gives the spread as reported.
PMIV: Plasmepsin IV (PMIV, Plasmodium falciparum 3D7, UniProt Q8IM16)
Sequence of UniProt Q8IM16 (whole entry, looked up): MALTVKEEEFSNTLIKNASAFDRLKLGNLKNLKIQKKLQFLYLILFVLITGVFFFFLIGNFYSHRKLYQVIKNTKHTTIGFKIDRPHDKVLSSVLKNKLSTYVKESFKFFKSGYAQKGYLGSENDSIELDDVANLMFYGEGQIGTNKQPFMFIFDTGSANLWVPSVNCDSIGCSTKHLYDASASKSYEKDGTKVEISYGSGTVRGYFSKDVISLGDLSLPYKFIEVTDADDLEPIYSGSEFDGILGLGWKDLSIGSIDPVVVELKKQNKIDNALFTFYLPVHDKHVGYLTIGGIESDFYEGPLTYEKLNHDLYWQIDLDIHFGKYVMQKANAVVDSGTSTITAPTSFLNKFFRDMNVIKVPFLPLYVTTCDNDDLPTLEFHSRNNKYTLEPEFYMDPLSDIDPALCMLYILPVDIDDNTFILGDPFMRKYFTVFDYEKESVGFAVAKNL
Metallo-beta-lactamase type 2: Metallo-beta-lactamase type 2 (Serratia marcescens, UniProt P52699)
Sequence of UniProt P52699 (whole entry, looked up): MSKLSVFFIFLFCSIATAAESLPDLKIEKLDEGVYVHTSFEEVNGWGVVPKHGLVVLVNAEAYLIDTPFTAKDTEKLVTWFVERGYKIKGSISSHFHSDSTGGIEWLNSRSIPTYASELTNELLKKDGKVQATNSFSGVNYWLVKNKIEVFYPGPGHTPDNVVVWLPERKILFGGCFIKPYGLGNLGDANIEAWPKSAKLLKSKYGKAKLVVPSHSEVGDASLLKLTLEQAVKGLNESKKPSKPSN
Aspartic protease PM4: Aspartic protease PM4 (Plasmodium vivax, UniProt O60989)
Sequence of UniProt P30803 (whole entry, looked up): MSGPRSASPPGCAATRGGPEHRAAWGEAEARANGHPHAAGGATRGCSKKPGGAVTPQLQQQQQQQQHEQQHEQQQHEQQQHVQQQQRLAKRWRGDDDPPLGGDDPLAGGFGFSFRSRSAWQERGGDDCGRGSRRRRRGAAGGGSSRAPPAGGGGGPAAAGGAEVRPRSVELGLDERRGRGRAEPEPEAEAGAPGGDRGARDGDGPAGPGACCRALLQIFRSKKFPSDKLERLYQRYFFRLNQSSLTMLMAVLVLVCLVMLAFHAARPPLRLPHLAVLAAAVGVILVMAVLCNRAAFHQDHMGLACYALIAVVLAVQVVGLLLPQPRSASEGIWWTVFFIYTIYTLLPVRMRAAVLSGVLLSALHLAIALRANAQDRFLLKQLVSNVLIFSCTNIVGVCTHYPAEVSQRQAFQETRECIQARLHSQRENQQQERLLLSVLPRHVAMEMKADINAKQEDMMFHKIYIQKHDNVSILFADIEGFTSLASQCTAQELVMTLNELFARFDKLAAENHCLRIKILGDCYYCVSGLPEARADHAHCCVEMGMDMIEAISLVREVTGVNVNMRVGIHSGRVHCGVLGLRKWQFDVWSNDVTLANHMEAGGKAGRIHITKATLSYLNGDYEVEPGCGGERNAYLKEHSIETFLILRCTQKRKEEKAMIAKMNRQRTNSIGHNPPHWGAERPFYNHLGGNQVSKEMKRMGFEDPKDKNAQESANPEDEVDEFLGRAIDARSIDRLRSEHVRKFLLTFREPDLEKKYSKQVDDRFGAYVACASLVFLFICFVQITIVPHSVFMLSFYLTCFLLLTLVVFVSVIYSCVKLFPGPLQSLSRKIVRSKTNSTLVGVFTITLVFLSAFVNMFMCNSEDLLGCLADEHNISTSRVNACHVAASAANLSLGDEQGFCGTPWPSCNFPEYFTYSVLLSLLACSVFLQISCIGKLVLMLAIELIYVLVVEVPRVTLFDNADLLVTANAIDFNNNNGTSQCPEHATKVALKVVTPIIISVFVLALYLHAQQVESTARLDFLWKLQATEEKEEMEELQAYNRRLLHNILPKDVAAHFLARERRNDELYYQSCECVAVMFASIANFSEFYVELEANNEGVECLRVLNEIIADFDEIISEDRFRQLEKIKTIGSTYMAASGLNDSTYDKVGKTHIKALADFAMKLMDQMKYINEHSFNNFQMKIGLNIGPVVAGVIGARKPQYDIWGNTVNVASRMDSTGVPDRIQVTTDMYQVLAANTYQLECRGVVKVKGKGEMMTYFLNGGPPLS
Sequence of UniProt P35368 (whole entry, looked up): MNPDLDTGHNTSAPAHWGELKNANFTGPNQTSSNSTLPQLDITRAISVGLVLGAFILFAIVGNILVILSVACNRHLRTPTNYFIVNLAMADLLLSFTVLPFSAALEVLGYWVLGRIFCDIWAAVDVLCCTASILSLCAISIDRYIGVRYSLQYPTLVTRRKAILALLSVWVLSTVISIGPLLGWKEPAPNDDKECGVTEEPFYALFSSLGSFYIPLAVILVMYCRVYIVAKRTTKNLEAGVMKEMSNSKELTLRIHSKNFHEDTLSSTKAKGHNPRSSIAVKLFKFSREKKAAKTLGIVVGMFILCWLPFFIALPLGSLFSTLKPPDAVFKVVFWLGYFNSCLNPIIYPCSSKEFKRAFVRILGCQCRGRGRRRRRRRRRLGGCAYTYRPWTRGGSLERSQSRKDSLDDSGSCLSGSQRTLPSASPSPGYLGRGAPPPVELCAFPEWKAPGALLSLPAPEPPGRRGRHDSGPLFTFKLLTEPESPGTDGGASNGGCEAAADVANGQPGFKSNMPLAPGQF
Sequence of UniProt P31652 (whole entry, looked up): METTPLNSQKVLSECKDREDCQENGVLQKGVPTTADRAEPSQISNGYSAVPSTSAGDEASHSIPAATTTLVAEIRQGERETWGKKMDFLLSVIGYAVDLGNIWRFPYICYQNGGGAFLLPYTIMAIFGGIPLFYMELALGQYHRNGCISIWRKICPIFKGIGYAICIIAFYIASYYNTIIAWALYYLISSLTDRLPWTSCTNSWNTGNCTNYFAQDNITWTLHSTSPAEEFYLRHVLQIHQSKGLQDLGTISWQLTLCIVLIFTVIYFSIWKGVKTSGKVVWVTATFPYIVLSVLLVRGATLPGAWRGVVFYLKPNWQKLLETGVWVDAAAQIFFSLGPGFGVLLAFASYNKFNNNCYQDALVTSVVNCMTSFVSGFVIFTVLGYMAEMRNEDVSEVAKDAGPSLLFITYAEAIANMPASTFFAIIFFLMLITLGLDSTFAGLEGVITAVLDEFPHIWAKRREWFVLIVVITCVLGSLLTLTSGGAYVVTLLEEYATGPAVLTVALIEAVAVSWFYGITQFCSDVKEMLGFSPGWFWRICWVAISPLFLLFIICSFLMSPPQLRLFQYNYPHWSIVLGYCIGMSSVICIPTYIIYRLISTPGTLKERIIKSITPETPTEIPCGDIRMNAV
Sequence of UniProt P41020 (whole entry, looked up): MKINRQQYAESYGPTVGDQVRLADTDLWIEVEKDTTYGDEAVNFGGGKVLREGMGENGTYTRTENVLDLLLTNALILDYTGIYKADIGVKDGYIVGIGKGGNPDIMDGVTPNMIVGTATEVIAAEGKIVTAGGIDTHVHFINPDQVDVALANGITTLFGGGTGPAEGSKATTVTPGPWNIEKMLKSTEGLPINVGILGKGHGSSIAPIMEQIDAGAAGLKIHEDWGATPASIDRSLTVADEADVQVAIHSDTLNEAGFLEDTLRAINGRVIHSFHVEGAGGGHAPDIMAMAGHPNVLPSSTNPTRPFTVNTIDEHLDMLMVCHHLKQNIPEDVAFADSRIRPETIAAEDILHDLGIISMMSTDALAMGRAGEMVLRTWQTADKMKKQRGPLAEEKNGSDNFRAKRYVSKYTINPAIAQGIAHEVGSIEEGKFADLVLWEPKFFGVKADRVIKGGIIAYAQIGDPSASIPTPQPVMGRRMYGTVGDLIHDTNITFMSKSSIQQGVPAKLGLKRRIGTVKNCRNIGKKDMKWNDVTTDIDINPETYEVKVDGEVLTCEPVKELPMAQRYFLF
Sequence of UniProt P33535 (whole entry, looked up): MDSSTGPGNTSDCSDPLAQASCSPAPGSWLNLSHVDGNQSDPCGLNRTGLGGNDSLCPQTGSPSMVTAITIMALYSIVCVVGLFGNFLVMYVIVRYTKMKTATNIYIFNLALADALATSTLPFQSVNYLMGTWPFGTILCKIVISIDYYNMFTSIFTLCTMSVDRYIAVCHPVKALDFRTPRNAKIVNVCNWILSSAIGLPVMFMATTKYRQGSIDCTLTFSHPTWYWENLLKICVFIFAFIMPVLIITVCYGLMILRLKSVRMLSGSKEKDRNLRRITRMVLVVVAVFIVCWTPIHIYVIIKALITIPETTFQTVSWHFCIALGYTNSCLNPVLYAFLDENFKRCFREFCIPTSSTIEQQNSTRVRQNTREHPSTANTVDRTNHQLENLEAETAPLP

| Compound | target | assay | test system | setting | Ki [µM] |
| --- | --- | --- | --- | --- | --- |
| COC(=O)C1C(OC(c2ccc(Cl)cc2)c2ccc(Cl)cc2)CC2CCC1N2C (single isomer, unassigned) | norepinephrine transporter |  |  |  | 2.15 ± 0.325 |
| COC(=O)N[C@H](C(=O)NN(CC[C@@](O)(Cc1ccccc1)C(=O)N[C@H]1c2ccccc2C[C@H]1O)Cc1ccc(-c2ccncc2)cc1)C(C)(C)C | Gag-Pol polyprotein, protease (gag-pol, Human immunodeficiency virus type 1 group M subtype B, UniProt P04585) |  |  |  | 0.0023 |
| N[C@@H](Cc1ccccc1)P(=O)(O)O | phenylalanine ammonia-lyase (maize) |  |  |  | 1.5 |
| CCCC[C@@H](CN[C@@H](CC(C)C)C(=O)N[C@@H](CCC(N)=O)C(=O)N[C@H](C(=O)O)[C@@H](C)CC)NC(=O)[C@H](CO)NC(=O)[C@H](CCCC)NC(=O)[C@@H]1CCCN1C(=O)[C@@H](N)CCCCN | PMIV |  |  |  | 0.022 ± 0.003 |
| CC1(C)SCCSC[C@@H](NC(=O)[C@@H](N)Cc2ccc(O)cc2)C(=O)N[C@@H](Cc2ccccc2)C(=O)N[C@H]1C(N)=O | Mu-type opioid receptor (Oprm1, Rattus norvegicus, UniProt P33535) | binding |  |  | 0.0003 ± 4e-05 |
| O=C(O)[C@@H]1CS[C@H]2CS[C@H](CS)N21 | Metallo-beta-lactamase type 2 | inhibitor |  |  | 8 ± 2 |
| O=C(NC1CCN(CCc2c[nH]c3ccccc23)CC1)c1ccccc1 | Alpha-1B adrenergic receptor (ADRA1B, Homo sapiens, UniProt P35368) | binding |  |  | 0.226 |
| CNCP(C)(=O)O | Urease subunit alpha (Sporosarcina pasteurii, UniProt P41020) | enzyme activity, inhibitor |  |  | 18 ± 0.7 |
| CCN1CCCC1CNC(=O)c1cc(Br)cc(OC)c1OC (stereo not shown) [carbon-11 labelled] | dopamine D2short receptor |  |  | with: [3H]spiperone | 0.0016 |
| C=CC(=O)N1CCC[C@@H](n2nc(-c3cn(C)c4ccccc34)c3c(N)ncnc32)C1 | Epidermal growth factor receptor (EGFR, Homo sapiens, UniProt P00533, L858R) |  |  |  | 0.019 ± 0.0031 |
| CC(C)C[C@H](NC(=O)[C@@H]1CCCN1C(=O)[C@@H](N)CCCCN)C(=O)N[C@@H](CCC(=O)O)C(=O)N[C@H](CN[C@@H](Cc1ccc(O)cc1)C(=O)N[C@@H](CCCNC(=N)N)C(=O)N[C@H](C(=O)O)C(C)C)Cc1ccccc1 | Aspartic protease PM4 |  |  |  | 0.0007 ± 9e-05 |
| O=C1N[C@@H](Cc2ccccc2)C(=O)N2CCC[C@@H]2C(=O)N[C@@H](Cc2ccccc2)C(=O)N[C@H]1Cc1c[nH]c2ccccc12 | KOR opioid receptor | binding |  |  | 0.0354 ± 0.0036 |
| CCCC[C@@H](C(=O)N[C@@H](CC(=O)O)C(=O)N[C@@H](Cc1ccccc1)C(N)=O)N(C)C(=O)[C@@H](Cc1c[nH]c2ccccc12)NC(=O)CNC(=O)[C@@H](Cc1ccccc1)NC(=O)[C@@H](N)Cc1ccc(O)cc1 | CCK1 receptor | binding |  |  | 1.1 |
| CSC[C@H]1CN(Cc2c[nH]c3c(N)ncnc23)C[C@@H]1O | MTA/SAH nucleosidase Klebsiella pneumoniae | inhibitor |  |  | 0.000784 |
| OC(Cc1ccccc1)CN1CCN(CCSC(c2ccc(F)cc2)c2ccc(F)cc2)CC1 (stereo not shown) | Sodium-dependent serotonin transporter (Slc6a4, Rattus norvegicus, UniProt P31652) | binding | rat brain membranes |  | 1.77 ± 0.234 |
| C#CCN(C)Cc1cc2cc(OCCCN3CCCCC3)ccc2n1C | sigma 1 receptor | agonist |  |  | 0.0652 |
| O[C@H]1[C@H](O)[C@@H](CF)NC[C@@H]1O | α-glucosidase (pig liver) | inhibitor |  |  | > 5000 |
| CC(C)[C@H](NC(=O)[C@@H]1CCCN1C(=O)[C@@H](N)CCCCN)C(=O)N[C@@H](CCC(=O)O)C(=O)N[C@H](CN[C@@H](CCCNC(=N)N)C(=O)N[C@@H](CCC(N)=O)C(=O)N[C@H](C(=O)O)[C@@H](C)O)Cc1ccccc1 | Aspartic protease PM4 |  |  |  | 0.014 ± 0.002 |
| CN(C[C@H](O)[C@@H](O)[C@H](O)[C@H](O)CO)C(=O)c1ccc(CN(Cc2ccccn2)Cc2ccccn2)nc1 | Metallo-beta-lactamase VIM-2 (VIM-2, Escherichia coli, UniProt Q5U7L7) |  |  |  | 24 |
| CC(C)C[C@H](NC(=O)[C@@H]1CCCN1C(=O)[C@@H](N)CCCCN)C(=O)N[C@@H](CCC(=O)O)C(=O)N[C@H](CN[C@@H](Cc1ccccc1)C(=O)N[C@@H](CCCNC(=N)N)C(=O)N[C@H](C(=O)O)C(C)C)Cc1ccccc1 | PMIV |  |  |  | 9e-05 ± 1e-05 |
| Nc1ccccc1C(=O)O[C@H]1[C@@H](O)[C@H](n2cnc3c(=O)[nH]cnc32)O[C@@H]1COP(=O)(O)O | ADCY5 (Canis lupus, UniProt P30803) | enzyme activity, inhibitor | Sf9 membranes | with: 5 mM MnCl2 and 100 µM forskolin | 4.3 ± 0.6 |
| CC1(C)S[C@@H]2CS[C@@H](CS)N2[C@H]1C(=O)O | Metallo-beta-lactamase type 2 | inhibitor |  |  | 14 ± 3 |

A few entries again:
| Compound | target | assay | test system | setting | Ki [µM] |
| --- | --- | --- | --- | --- | --- |
| COC(=O)C1C(OC(c2ccc(Cl)cc2)c2ccc(Cl)cc2)CC2CCC1N2C (single isomer, unassigned) | norepinephrine transporter |  |  |  | 2.15 ± 0.325 |
